Measurements collected from several papers.
Each line is one published result; not all experiments were run side by side. ± gives the spread as reported. Converted amounts (≈) assume the structure as drawn.
NR3C1: Glucocorticoid receptor (NR3C1, Homo sapiens, UniProt P04150)

The chains behind the UniProt entries cited, without tags or fusion partners.
UniProt P04150, whole entry: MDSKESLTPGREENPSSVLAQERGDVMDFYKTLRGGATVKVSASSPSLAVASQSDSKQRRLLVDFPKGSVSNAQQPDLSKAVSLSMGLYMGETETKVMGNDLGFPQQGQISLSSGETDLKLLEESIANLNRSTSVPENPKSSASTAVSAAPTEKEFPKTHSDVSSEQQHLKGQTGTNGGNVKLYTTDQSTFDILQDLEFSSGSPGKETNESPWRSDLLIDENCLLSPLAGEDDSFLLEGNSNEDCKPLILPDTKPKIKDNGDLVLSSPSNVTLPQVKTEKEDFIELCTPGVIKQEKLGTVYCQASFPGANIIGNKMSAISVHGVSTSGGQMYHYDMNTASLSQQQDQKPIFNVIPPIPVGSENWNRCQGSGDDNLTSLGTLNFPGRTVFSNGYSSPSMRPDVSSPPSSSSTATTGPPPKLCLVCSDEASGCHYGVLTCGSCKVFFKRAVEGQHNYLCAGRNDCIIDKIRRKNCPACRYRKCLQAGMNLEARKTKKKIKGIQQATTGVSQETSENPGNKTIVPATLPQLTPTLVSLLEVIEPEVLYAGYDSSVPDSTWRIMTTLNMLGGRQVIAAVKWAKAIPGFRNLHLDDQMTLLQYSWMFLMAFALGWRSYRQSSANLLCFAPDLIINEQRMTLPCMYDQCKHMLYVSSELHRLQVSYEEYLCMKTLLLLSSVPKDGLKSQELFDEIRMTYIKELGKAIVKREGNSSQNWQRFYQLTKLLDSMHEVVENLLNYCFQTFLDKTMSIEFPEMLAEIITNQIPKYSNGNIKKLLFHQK

Compound = O=C(Nc1cccnn1)N1CC(Oc2ccc(-c3ccccc3F)cn2)C1; test system = healthy humans; conditions = oral, 5 to 300 mg, single dose, range of means; endpoint = terminal half-life; value = 5.4 to 11.2 h
Compound = Cc1cc(C)c(C(=O)OCC(=O)[C@H](CCCCN)NC(=O)[C@H](Cc2ccccc2)NC(=O)OCc2ccccc2)c(C)c1; assay = HPLC; conditions = pH 7.4; endpoint = logD; value = 2.08 ± 0.08
Compound = CS(=O)(=O)c1ccc(NC(=O)CSc2nnc(-c3ccccc3F)n2-c2ccccc2)cc1; test system = aqueous buffer; conditions = pH 7.4; endpoint = solubility; value = 154 µg/mL
Compound = COc1cc(CC(=O)NCC(NC(=O)C(CCCNC(=O)c2cccc(I)c2)NC(=O)C(Cc2ccc(C(F)(F)P(=O)(O)O)cc2)NC(=O)c2ccc(C)c(Br)c2)C(N)=O)ccc1O (stereo not shown); assay = HPLC-MS/MS; test system = mouse, plasma; conditions = intraperitoneal, 20 mg/kg; endpoint = CL/F; value = 0.047 L/h
Compound = COc1ccc(N2C(=O)N(c3c(C)cccc3Cl)Cc3cnc(Nc4ccc(N5CCN(C)CC5)cc4OC)nc32)nc1; test system = mouse liver microsomes; endpoint = half-life; value = 0.617 h
Compound = C[C@H](CCC(=O)O)[C@H]1CC[C@]2(C)[C@@H]3C(=O)C[C@H]4C(C)(C)[C@@H](O)CC[C@]4(C)[C@H]3C(=O)C[C@@]12C; tested on = NR3C1; assay = nuclear translocation, agonist, enzyme fragment complementation; endpoint = EC50; value = > 9 µM
Compound = Cc1cc(C)c(CNC(=O)c2cc(-c3ccc(N4CCN(CCNC(=O)CC56CC7CC(CC(C7)C5)C6)CC4)nc3)cc3c2cnn3C(C)C)c(=O)[nH]1; test system = mouse Swiss albino male, plasma; conditions = p.o., 150 mg/kg single; endpoint = Cmax; value = 1100 nM
Compound = CN1CCN(c2nc(NCc3nc4cc(Cl)ccc4[nH]3)c3ncn(-c4ccoc4)c3n2)CC1; test system = DMEM with 10% FBS; endpoint = solubility; value = 18 µM
Compound = COc1cc(OC)c(NC(=O)CSc2nnc(-c3ccccc3)n2C)cc1Cl; test system = octanol/buffer; conditions = pH 11; endpoint = logD; value = 3.22
Compound = CCN(CC)C(=O)Oc1ccc(C(=O)Nc2cccc3cc[nH]c23)cc1; assay = nephelometry; test system = aqueous solution; conditions = room temperature; endpoint = solubility; value = 100 µM
Compound = CCc1c(-c2ccccc2)nn2c(=O)cc(-c3cccc(C(=O)O)c3)[nH]c12; test system = mouse liver microsomes; conditions = 1 µM, 30 min; endpoint = remaining compound; value = ~100%
Compound = C[C@@]12CC[C@@H]3[C@H](CCC4=CC(=O)CC[C@]43C)[C@@H]1CC[C@@H]2C(=O)COS(=O)(=O)c1ccc(Br)cc1; tested on = NR3C1; assay = nuclear translocation, agonist, enzyme fragment complementation; endpoint = EC50; value = > 9 µM
Compound = O=C(Nc1ccc(-c2nc3ccccc3s2)cc1)C1CCN(S(=O)(=O)c2ccccc2Cl)CC1; assay = turbidimetry; test system = sodium phosphate buffer; conditions = pH 7.4, 1% DMSO; endpoint = aqueous solubility; value = 12.8 µM (≈ 6.58 µg/mL)

A few entries again:
Compound = CCc1c(-c2ccccc2)nn2c(=O)cc(-c3cccc(C(=O)O)c3)[nH]c12; test system = mouse liver microsomes; conditions = 1 µM, 30 min; endpoint = remaining compound; value = ~100%
Compound = C[C@@]12CC[C@@H]3[C@H](CCC4=CC(=O)CC[C@]43C)[C@@H]1CC[C@@H]2C(=O)COS(=O)(=O)c1ccc(Br)cc1; tested on = NR3C1; assay = nuclear translocation, agonist, enzyme fragment complementation; endpoint = EC50; value = > 9 µM
